# Measured values of several laboratories.
# Lines come from different studies, so protocols differ. Numbers after ± are the reported error.
SMILES,test system,conditions,tissue uptake [%ID/g]
O=C(O)C1CN(Cc2ccc(-c3noc(-c4ccc(OCC[18F])c(C(F)(F)F)c4)n3)cc2)C1,"male Sprague-Dawley rat, blood","intravenous, 5 min",0.304 ± 0.058
OCc1cn(Cc2ccc(-c3noc(-c4ccc(OCC[18F])c(C(F)(F)F)c4)n3)cc2)nn1,"female Lewis rat, fat","intravenous, 5 min",0.51 ± 0.22
O=C([O-])CN1CCN(CC(=O)[O-])CCN(CC(=O)NCCc2ccc3c(c2)C2C=CCC2C(c2cc4c(cc2Br)OCO4)N3)CCN(CC(=O)[O-])CC1.[111In+3] (stereo not drawn),"mouse, Hec50 endometrial tumour, uterus",4 h post injection,0.66 ± 0.03
CCCC[C@H](NC(=O)CNC(=O)CNC(=O)CN1CCN(CC(=O)O)CCN(CC(=O)O)CCN(CC(=O)O)CC1)C(=O)N[C@H]1CC(=O)NCCCC[C@@H](C(N)=O)NC(=O)[C@H](Cc2c[nH]c3ccccc23)NC(=O)[C@H](CCCNC(=N)N)NC(=O)[C@@H](Cc2ccccc2)NC(=O)[C@H](Cc2c[nH]cn2)NC1=O [copper-64 labelled],"female C57 mouse, B16/F1 melanoma, stomach","intravenous, 0.037 MBq, 2 h",4.78 ± 0.96
CC(C)[C@H](NC(=O)[C@@H]1CCCN1C(=O)[C@H](CCCNC(=N)N)NC(=O)[C@H](CS)NC(=O)[C@H](Cc1c[nH]c2ccccc12)NC(=O)[C@H](CCCNC(=N)N)NC(=O)[C@@H](Cc1ccccc1)NC(=O)[C@H](Cc1c[nH]cn1)NC(=O)[C@H](CCC(=O)O)NC(=O)[C@H](CS)NC(=O)[C@H](CS)NC(=O)[C@@H]1CC(=O)N[C@@H](CCCNC(=N)N)C(=O)NCC(=O)N[C@@H](CC(=O)O)C(=O)N[C@H](Cc2ccc(O)cc2)C(=O)N1)C(N)=O [technetium-99m labelled],"C57 mouse, female, B16/F1 melanoma, tumor","intravenous, 0.037 MBq, 4 h",12.1 ± 1.45
CN(C)c1ccc(-c2nc3ccc(OCCCCCN4CCN5CCN(CC4)CC(=O)[O][Al]([18F])[O]C(=O)C5)cc3s2)cc1,"ICR mouse, brain","intravenous, 30 min",0.12 ± 0.1
CCCC[C@H](NC(=O)CNC(=O)CNC(=O)CN1CCN(CC(=O)O)CCN(CC(=O)O)CC1)C(=O)N[C@H]1CC(=O)NCCCC[C@@H](C(N)=O)NC(=O)[C@H](Cc2c[nH]c3ccccc23)NC(=O)[C@H](CCCNC(=N)N)NC(=O)[C@@H](Cc2ccccc2)NC(=O)[C@H](Cc2c[nH]cn2)NC1=O [copper-64 labelled],"female C57 mouse, B16/F1 melanoma, liver","intravenous, 0.037 MBq, 2 h",0.69 ± 0.06
O=C([O-])c1cccc(CN(CCN(Cc2cn(Cc3ccccc3)nn2)Cc2cccc(C(=O)[O-])n2)Cc2cn(Cc3ccccc3)nn2)n1.[64Cu+2],"healthy athymic nude mice, small intestine","intravenous, 24 h",3.05
CC(C)[C@H](NC(=O)[C@@H]1CCCN1C(=O)[C@H](CCCNC(=N)N)NC(=O)[C@H](CS)NC(=O)[C@H](Cc1c[nH]c2ccccc12)NC(=O)[C@H](CCCNC(=N)N)NC(=O)[C@@H](Cc1ccccc1)NC(=O)[C@H](Cc1c[nH]cn1)NC(=O)[C@H](CCC(=O)O)NC(=O)[C@H](CS)NC(=O)[C@H](CS)NC(=O)CNC(=O)[C@@H]1CC(=O)N[C@@H](CCCNC(=N)N)C(=O)NCC(=O)N[C@@H](CC(=O)O)C(=O)N[C@H](Cc2ccc(O)cc2)C(=O)N1)C(N)=O [technetium-99m labelled],"C57 mouse, female, B16/F1 melanoma, blood","intravenous, 0.037 MBq, 4 h",0.71 ± 0.72

# Some of these lines once more:
SMILES,test system,conditions,tissue uptake [%ID/g]
OCc1cn(Cc2ccc(-c3noc(-c4ccc(OCC[18F])c(C(F)(F)F)c4)n3)cc2)nn1,"female Lewis rat, fat","intravenous, 5 min",0.51 ± 0.22
